# Measurements of several laboratories.
# Protocols differ between the studies behind these lines.
# Cell line: Hs-578T
Structure (SMILES),test,conditions,scale,measurement,value
CC(C)c1ccc(N(C)c2ccc3c(c2)OCC[C@H]3CNc2cnccc2C(=O)O)cc1,"cell viability, CellTiter-Glo",7 days,,IC50,13.9 nM
CCN(C(=O)c1cc(F)ccc1Oc1nncnc1N1CCC2(C1)CN([C@H](CCCN(C)CCOC)C(C)C)C2)C(C)C,cell growth or viability,7 days,,GI50,> 10000 nM
CNS(=O)(=O)Nc1nccc(Cc2c(C)c3ccc(Oc4ncccc4F)cc3oc2=O)c1F,cell viability,7 days,,IC50,> 1000 nM
COC(=O)N1c2ccc3c(nc(Cc4ccccc4)n3[C@@H]3CCC[C@@H](C(=O)O)C3)c2CC[C@@H]1C,"cell growth or viability, ATP luminescence",10 days,,IC50,1020 nM
CN(C)CCN1CCN(c2ccc3nc(-c4ccc5nc(-c6ccc(C(F)(F)F)cc6)[nH]c5c4)[nH]c3c2)CC1,SRB,"10 µM, 48 h",,growth percent,52.8%
O=C(Nc1nnc2c1c(-c1ccc(Cl)cc1)nc1sc(=Cc3ccco3)c(=O)n12)c1ccccc1 (mixture of isomers),SRB,"10 µM, NCI60 single-dose screen",baseline: untreated,cell growth,58.2%
Cc1ccc([N+](=O)[O-])cc1S(=O)(=O)N(C)/N=C/c1cnc2ccc(Br)cn12,cell growth or viability,,,IC50,586 nM
C1=[N+]2CCCC[N+]3=Cc4ccc5[n]4[Au-]23[n]2c1ccc2-c1nc2ccccc2nc1-5.F[P-](F)(F)(F)(F)F,NCI60 five-dose screen,,,TGI,4 -log M
